Measurements of several laboratories.
Lines come from different studies, so protocols differ. Values joined by “and” are separate records of one study, mostly repeats; a detail may differ. ± gives the spread as reported.
Cell line: MCF7

`CC[C@H](C)[C@H](NC(=O)CNC(=O)[C@H](Cc1ccc(O)cc1)NC(=O)[C@H](CO)NC(=O)[C@H](Cc1ccc(O)cc1)NC(=O)[C@@H](NC(=O)[C@H](CC(=O)O)NC(=O)[C@H](CO)NC(=O)[C@H](CCC(N)=O)NC(=O)[C@H](Cc1ccccc1)NC(=O)[C@H](CO)NC(=O)[C@H](Cc1ccccc1)NC(=O)[C@@H]1CCCN1C(=O)[C@H](CC(N)=O)NC(=O)[C@H](CC(N)=O)NC(=O)[C@H](CC(=O)O)NC(=O)[C@H](CCC(N)=O)NC(=O)[C@@H]1CCCN1C(=O)[C@H](CCCNC(=N)N)NC(=O)[C@H](CCCNC(=N)N)NC(=O)[C@H](CCCNC(=N)N)NC(=O)[C@H](CCC(N)=O)NC(=O)[C@H](CCCNC(=N)N)NC(=O)[C@H](CCCNC(=N)N)NC(=O)[C@H](CCCCN)NC(=O)[C@H](CCCCN)NC(=O)[C@H](CCCNC(=N)N)NC(=O)CN)C(C)C)C(=O)N[C@H](C(=O)N[C@@H](CC(C)C)C(N)=O)C(C)C` gave a phospho-MEK1/2 level of 0.972 and 0.914 (immunoblot densitometry, refers to: phospho-MEK1/2 Ser217/221; 5 µM, 48 h, unit not given; reference: 0 µM).
With `CC1CCC2C(C)C(OC(=O)CCC(=O)N3CCN(CC(=O)Nc4ccc([N+](=O)[O-])c(C(F)(F)F)c4)CC3)OC3OC4(C)CCC1C32OO4` (stereo not shown) the IC50 was > 50 µM (cell growth or viability, CCK-8).
With `c1cnc2c(c1)c1nccnc1c1cccnc12` the IC50 was > 50 µM (cell growth or viability, MTT; 48 h).
For `CC1CCC2C(C)C(OC(=O)CCC(=O)OC3C(C)OC(n4cc(F)c(=O)[nH]c4=O)C3OC(=O)CCC(=O)OC3OC4OC5(C)CCC6C(C)CCC(C3C)C46OO5)OC3OC4(C)CCC1C32OO4` (stereo not shown), the IC50 was > 50 µM (cell growth or viability, CCK-8).
The log LC50 of `CC(C)(C)C(=O)OCOP(=O)(OCOC(=O)C(C)(C)C)C1CCCN(O)C1=O` (stereo not shown) is reported as -4.08 log M.
With `CNC(=S)NCCCC[C@H](NC(=O)CCc1ccccc1)C(=O)N[C@@H](CCCNC(=N)N)C(=O)N[C@@H](CC1CCCCC1)C(=O)N[C@H](CCCCN)C(=O)N[C@@H](CC1CCCCC1)C(N)=O` the EC50 was 58.3 µM (cell growth or viability, MTT; 72 h).
`O=C(Cc1ccc(Cl)cc1)N1CCN(CC(OCc2ccc3ccccc3c2)c2ccc(Cl)cc2Cl)CC1` (stereo not shown) has an IC50 of 17.9 µM (cell growth or viability, MTT; 24 h).
With `CCC1(c2ccc(NC(=O)CCC(=O)OC3OC4OC5(C)CCC6C(C)CCC(C3C)C46OO5)cc2)CCC(=O)NC1=O` (mixture of isomers) the IC50 was > 50 µM (cell growth or viability, CCK-8).
`O=C(N[C@H](Cc1ccccc1)C(=O)N[C@H](Cc1ccccc1)C(=O)N[C@@H](Cc1ccc(OP(=O)(O)O)cc1)C(=O)O)OCC1c2ccccc2-c2ccccc21` has a low-TMRM cells of 60% (mitochondrial membrane potential, flow cytometry; 500 µM, 48 h).
`CC(C)Cc1ccc(C(C)C(=O)[O-])cc1.CC(C)Cc1ccc(C(C)C(=O)[O-])cc1.O.[Cu+2].c1ccncc1.c1ccncc1` (stereo not shown) has a TGI of 80 ± 4.9 µM (cell growth, MTT; 48 h).
With `CC[C@H](C)[C@@H]1NC(=O)[C@@H]2CCCN2C(=O)[C@H](C)NC(=O)[C@H](CC(C)C)NC(=O)[C@@H]2CCCN2C(=O)[C@H](C)NC(=O)[C@@H]2CSSC[C@H](NC(=O)[C@H](C)NC(=O)[C@H](C)NC(=O)[C@H](Cc3ccc(O)cc3)NC(=O)[C@@H]3CCCN3C(=O)CNC(=O)[C@H](Cc3c[nH]c4ccccc34)NC1=O)C(=O)N[C@@H](CC(C)C)C(=O)N[C@@H](CO)C(=O)N[C@@H](C)C(=O)N[C@H]1CSSC[C@H](NC(=O)[C@H](C(C)C)NC(=O)[C@@H]3CCCN3C(=O)CNC(=O)CNC(=O)CNC(=O)[C@H](C)NC(=O)[C@H](C)NC(=O)[C@H](CC(C)C)NC1=O)C(=O)N[C@@H](CC(C)C)C(=O)N[C@@H](C)C(=O)N[C@@H](C(C)C)C(=O)N2` the IC50 was > 128 µg/mL.
`O=C(Cc1ccc(Br)cc1)N1CCN(CC(OCc2ccc3ccccc3c2)c2ccc(Cl)cc2Cl)CC1` (stereo not shown) gave an IC50 of 18.6 µM (cell growth or viability, MTT; 24 h).
`Cc1ccc2c(Cl)cc(Cl)c([O-])c2n1.Cc1ccc2c(Cl)cc(Cl)c([O-])c2n1.[Co+2].c1cnc2c(c1)c1nccnc1c1cccnc12` gave an IC50 of 5.16 µM (cell growth or viability, MTT; 48 h).
